Results of several laboratories.
Parts stem from different laboratories: compare values within a part only.

Study 1
Target: PABPC1L2, full length, GST fusion (mouse, UniProt A0ABA7IW68)
Technique: RNAcompete
Form: RNA
Matrix: in vitro
Tested at: 20 nM
Setting: 7-mer, probes averaged, single round
Relative to: mean of 7-mers
Reading: higher = stronger binding
Target sequence (chain): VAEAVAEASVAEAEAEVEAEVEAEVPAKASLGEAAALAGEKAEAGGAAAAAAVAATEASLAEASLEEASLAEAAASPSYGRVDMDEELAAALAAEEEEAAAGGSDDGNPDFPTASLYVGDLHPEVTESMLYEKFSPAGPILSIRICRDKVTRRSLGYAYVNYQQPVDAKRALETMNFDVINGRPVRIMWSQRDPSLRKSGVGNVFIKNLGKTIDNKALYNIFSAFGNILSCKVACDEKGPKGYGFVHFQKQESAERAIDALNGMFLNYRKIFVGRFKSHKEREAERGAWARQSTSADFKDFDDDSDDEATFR
Sequence | 7-mer Z-score
AACCAAU | 0.274
UAGGAAC | 0.113
AUAACCU | -0.188
AUGAAUC | -0.195
GAACCCA | 0.066
GGAUGGA | 0.113
GUAUCUG | -0.175
GGGUUGA | 0.274

Study 2
Target: Ras GTPase-activating protein-binding protein 1, C-terminal RGG region (G3BP1, Homo sapiens, UniProt Q13283)
UniProt Q13283, sequence (whole entry, looked up): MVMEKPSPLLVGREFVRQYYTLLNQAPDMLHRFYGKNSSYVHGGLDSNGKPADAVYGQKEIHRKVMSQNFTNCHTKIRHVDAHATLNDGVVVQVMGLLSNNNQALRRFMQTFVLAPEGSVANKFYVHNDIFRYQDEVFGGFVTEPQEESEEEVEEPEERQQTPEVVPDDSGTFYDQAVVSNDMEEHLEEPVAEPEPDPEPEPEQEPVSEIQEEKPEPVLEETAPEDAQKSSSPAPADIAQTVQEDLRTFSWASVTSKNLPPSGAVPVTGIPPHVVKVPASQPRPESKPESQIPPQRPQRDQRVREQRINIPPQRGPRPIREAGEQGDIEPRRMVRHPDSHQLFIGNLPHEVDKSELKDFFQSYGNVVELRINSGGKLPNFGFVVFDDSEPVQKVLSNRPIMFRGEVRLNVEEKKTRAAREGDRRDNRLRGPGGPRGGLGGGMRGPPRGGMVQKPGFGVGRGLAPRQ
Technique: RNA Bind-n-Seq
Form: RNA
Matrix: in vitro
Tested at: 1 µM
Setting: whole 134-nt RNA, ends assumed
With: 150 mM KCl
Relative to: input library
Reading: higher = stronger binding
Constant ends, left off below: GGGAGUUCUACAGUCCGACGAUC … UGGAAUUCUCGGGUGUCAAGG
Sequence | log2 enrichment
ACCAUGCAGGUGGGCAUCUUUGGGAAGUGGGGCAAGUGGGGGAUAGGGAGGGGGGUAACACUUUGGGAACAGGUGGUCCCAGGUCGUUUC | -1.09
UCAAGUCCUGUGCUACACAUCGUAUGUACCGAAUCGGGAGGGAAAGGGUUUGGGAAAGUAUUAUGUUACGCCGUUCGGAUCUGCACUUCC | 1.91
CACAGACAACACGCACCCACACAGACACAGAGGGAAGGGGUUGGGAUGGGUACAGGGUGCACAGCAGGGCGGGGUAGGACCCCAGCCCCU | -0.457
GUCCUGUGCUACACAUCGUAUGUACCGAAUCGGGUUUUUUUGGGUUUGGGAAAAAGGGAAAGUAUUAUGUUACGCCGUUCGGAUCUGCAC | -0.61
ACCAUGCAGGUGGGCAUCUUUGGGAAGUGGGGCAAGGUGGGGAUAGGGAGGGGGGUAACACUUUGGGAACAGGUGGUCCCAGGUCGUUUC | -0.468
ACCAUGCAGGUGGGCAUCUUUGGGAAGUGGGGCAAGAGGGGGAUAGGGAGGGGGGUAACACUUUGGGAACAGGUGGUCCCAGGUCGUUUC | -0.894
CACAGACAACACUCACCCACACAGACACAGAGGGAAGGGGUUGGGAUGGGGACAGGGUGCACAGCAGGGCGGGGUAGGACCCCAGCCCCU | 0.289
UCCUGUGCUACACAUCGUAUGUACCGAAUCGGGGAAAAAGGGGAAAAAGGGAAAAAGGGGAAAGUAUUAUGUUACGCCGUUCGGAUCUGC | -0.26

Study 3
Target: Max-binding protein MNT, bHLH-zipper, MAX partner unstated (MNT, Homo sapiens, UniProt Q99583, residues 220-300)
Technique: protein-binding microarray
Form: double-stranded DNA, one strand shown
Matrix: in vitro
Tested at: not given
Setting: k-mer, scored over probes, only values ≥0.25
Reading: higher = stronger binding
Target sequence (chain): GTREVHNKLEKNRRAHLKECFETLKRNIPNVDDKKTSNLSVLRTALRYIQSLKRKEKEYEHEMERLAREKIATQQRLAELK
Sequence | E-score
ACGAGGTA | 0.317
GCACATGA | 0.451
ATGGCGTG | 0.342
CTCGCACA | 0.305
ACATGTTG | 0.378
TCACATGA | 0.391
CGGCACGC | 0.356
GGCGGGGA | 0.372

Further values, each from its own experiment
SMILES | target | test | conditions | scale | measurement | value
CC(C)c1nn(-c2c(Cl)cccc2Cl)c2nc(Cc3ccc(OCCO)cc3)[nH]c(=O)c12 | Cyclin-dependent kinase 2, with cyclin A (CDK2, Homo sapiens, UniProt P24941) | enzyme activity, inhibitor | 0.5 µM | relative to: control | remaining activity | 1.96%
